Measured values gathered from unrelated publications.
Parts stem from different laboratories: compare values within a part only. “And” joins repeats or separate records; there may be more than shown.
Chain of UniProt P10721 (whole entry, unmodified, looked up): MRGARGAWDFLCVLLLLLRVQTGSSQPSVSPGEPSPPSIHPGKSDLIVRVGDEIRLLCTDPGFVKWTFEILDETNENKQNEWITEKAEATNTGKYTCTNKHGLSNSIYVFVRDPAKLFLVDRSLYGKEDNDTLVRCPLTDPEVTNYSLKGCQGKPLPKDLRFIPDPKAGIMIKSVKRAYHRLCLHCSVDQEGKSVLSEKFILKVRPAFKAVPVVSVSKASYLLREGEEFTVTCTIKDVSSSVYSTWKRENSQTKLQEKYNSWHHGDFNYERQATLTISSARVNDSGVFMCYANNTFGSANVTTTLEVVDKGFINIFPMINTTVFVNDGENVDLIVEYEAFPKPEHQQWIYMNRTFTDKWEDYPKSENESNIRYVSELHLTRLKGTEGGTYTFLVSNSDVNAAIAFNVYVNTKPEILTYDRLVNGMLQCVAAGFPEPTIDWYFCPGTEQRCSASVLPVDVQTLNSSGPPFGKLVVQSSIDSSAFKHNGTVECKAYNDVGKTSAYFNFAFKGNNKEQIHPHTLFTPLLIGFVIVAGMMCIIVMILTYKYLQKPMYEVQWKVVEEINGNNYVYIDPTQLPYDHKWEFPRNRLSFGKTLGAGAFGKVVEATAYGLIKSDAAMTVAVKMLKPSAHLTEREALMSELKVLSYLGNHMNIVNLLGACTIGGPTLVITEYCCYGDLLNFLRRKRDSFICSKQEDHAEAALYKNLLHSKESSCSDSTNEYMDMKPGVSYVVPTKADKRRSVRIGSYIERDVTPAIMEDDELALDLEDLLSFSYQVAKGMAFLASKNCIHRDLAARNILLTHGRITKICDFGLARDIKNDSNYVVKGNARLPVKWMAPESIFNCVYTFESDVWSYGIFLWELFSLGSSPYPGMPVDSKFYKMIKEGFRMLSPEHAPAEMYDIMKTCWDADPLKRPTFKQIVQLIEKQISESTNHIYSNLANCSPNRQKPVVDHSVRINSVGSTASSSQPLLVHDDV
Chain of UniProt Q9UKT9 (whole entry, looked up): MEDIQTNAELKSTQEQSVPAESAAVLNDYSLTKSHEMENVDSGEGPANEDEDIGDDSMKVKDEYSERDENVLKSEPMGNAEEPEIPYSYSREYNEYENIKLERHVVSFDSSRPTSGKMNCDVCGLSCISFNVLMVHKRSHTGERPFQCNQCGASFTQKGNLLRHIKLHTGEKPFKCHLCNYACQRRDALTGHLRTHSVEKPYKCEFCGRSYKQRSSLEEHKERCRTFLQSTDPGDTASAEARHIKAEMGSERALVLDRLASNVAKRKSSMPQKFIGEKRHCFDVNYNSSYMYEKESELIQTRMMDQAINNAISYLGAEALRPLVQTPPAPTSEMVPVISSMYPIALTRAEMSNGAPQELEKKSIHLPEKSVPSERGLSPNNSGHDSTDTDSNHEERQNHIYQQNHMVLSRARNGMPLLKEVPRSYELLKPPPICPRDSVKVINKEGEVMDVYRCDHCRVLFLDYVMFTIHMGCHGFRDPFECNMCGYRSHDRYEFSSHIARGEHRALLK
Chain of UniProt Q13422 (whole entry, looked up): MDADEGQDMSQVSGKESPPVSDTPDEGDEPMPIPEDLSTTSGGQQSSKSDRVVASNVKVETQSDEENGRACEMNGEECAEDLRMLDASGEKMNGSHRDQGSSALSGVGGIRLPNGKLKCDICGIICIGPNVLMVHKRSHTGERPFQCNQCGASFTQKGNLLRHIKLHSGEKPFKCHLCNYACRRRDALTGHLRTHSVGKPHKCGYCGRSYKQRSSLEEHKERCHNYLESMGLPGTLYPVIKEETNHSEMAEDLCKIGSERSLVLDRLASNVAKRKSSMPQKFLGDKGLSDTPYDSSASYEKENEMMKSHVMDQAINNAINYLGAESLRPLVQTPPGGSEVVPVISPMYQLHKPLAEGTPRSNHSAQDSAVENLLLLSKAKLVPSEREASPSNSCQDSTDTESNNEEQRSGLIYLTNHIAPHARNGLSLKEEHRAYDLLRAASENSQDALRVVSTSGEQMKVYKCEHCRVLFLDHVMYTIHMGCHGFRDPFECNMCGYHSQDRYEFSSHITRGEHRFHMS
Chain of UniProt Q13177 (whole entry, looked up): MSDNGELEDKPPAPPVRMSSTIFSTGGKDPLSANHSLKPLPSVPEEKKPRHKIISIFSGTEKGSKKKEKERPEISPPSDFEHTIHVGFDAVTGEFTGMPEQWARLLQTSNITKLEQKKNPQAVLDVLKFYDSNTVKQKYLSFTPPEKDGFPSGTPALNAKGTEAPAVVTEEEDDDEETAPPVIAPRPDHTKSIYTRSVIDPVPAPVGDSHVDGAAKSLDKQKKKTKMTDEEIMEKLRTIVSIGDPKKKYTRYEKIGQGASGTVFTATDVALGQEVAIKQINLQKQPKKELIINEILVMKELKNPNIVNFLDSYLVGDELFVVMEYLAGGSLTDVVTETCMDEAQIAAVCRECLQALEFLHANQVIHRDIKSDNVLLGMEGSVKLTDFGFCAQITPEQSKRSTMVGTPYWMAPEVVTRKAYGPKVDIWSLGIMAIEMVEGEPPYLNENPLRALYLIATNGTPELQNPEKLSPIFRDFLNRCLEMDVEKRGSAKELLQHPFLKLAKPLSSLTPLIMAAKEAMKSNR
Chain of UniProt Q99680 (whole entry, looked up): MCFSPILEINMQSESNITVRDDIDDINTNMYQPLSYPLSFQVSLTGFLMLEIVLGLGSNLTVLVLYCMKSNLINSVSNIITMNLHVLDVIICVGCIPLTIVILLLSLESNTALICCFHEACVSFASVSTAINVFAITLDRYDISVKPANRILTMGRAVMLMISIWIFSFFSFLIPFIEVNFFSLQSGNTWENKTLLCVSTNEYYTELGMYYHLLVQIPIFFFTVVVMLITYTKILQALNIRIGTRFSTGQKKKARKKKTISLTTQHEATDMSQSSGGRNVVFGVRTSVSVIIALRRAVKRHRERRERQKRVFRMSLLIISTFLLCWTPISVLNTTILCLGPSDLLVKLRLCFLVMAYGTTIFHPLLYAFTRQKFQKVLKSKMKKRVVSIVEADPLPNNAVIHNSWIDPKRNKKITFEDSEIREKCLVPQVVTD
Chain of UniProt Q9H2S9 (whole entry, looked up): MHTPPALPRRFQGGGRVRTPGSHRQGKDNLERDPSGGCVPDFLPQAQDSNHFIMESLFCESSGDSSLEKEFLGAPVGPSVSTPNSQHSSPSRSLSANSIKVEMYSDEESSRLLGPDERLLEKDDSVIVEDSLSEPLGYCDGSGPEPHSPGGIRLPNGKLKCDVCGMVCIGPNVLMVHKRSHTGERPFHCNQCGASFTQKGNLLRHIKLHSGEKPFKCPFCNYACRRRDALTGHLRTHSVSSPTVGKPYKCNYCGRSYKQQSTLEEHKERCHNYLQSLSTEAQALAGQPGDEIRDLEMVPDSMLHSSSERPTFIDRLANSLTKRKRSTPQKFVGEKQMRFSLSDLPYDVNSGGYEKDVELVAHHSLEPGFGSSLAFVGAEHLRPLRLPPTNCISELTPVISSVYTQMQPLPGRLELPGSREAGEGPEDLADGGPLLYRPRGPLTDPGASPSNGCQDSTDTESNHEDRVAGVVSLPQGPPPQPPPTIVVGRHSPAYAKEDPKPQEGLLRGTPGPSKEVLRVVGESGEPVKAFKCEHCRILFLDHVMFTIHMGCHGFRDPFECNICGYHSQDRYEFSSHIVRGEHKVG

Sample 1 — technique: competition with immobilised ligand; concentration: 1 µM
Structure (SMILES): C[C@@H]1CN(c2cc(-c3nn(C)c4ccc(OC5(C)CC5)cc34)ncn2)C[C@H](C)O1
| target | test | remaining binding |
| --- | --- | --- |
| MAP2K2 (Homo sapiens, UniProt P36507) | cell-free assay | 73% |
| EGFR (Homo sapiens, UniProt P00533, del752-759) | cell-free assay | 74% |
| STK3 (Homo sapiens, UniProt Q13188) | cell-free assay | 100% |
| MAP3K14 (Homo sapiens, UniProt Q99558) | cell-free assay | 100% |
| EGFR (Homo sapiens, UniProt P00533, G719S) | cell-free assay | 72% |
| KIT (Homo sapiens, UniProt P10721, D816V) | cell-free assay | 94% |
| MAP2K7 (Homo sapiens, UniProt O14733) | cell-free assay | 74% |
| NTRK2 (Homo sapiens, UniProt Q16620) | cell-free assay | 65% |
| BMX (Homo sapiens, UniProt P51813) | cell-free assay | 93% |
| KIT (Homo sapiens, UniProt P10721, L576P) | cell-free assay | 100% |
| PIK3CA (Homo sapiens, UniProt P42336, E542K) | binding | 32% |
| SGK3 (Homo sapiens, UniProt Q96BR1) | cell-free assay | 67% |
| KIT (Homo sapiens, UniProt P10721, A829P) | cell-free assay | 60% |
| Ribosomal protein S6 kinase alpha-4, C-terminal kinase domain (RPS6KA4, Homo sapiens, UniProt O75676) | cell-free assay | 81% |
| PAK2 (Homo sapiens, UniProt Q13177) | cell-free assay | 90% |
| CDKL5 (Homo sapiens, UniProt O76039) | cell-free assay | 64% |
| HIPK1 (Homo sapiens, UniProt Q86Z02) | cell-free assay | 85% |
| ERBB3 (Homo sapiens, UniProt P21860) | cell-free assay | 57% |
| CIT (Homo sapiens, UniProt O14578) | cell-free assay | 100% |

Sample 2 — technique: Incucyte 3D growth; concentration: 30 µM; direction: higher = more growth
SMILES: CC(C)(C(=O)O)[C@H](NC(=O)Cc1cccc(I)c1)c1ccc2oc(=O)[nH]c2c1
| cell line | conditions | spheroid area |
| --- | --- | --- |
| NCI-H358 | 102 h | 3.84e+06 a.u. and 4.36e+06 a.u. and 5.27e+06 a.u. and 4.78e+06 a.u. and 3.97e+06 a.u. |
| KP-4 | 0 h | 7e+07 a.u. and 6.73e+07 a.u. and 6.93e+07 a.u. and 6.88e+07 a.u. and 6.63e+07 a.u. and 6.39e+07 a.u. |
| NCI-H358 | 222 h | 9.03e+06 a.u. and 7.51e+06 a.u. and 8.87e+06 a.u. and 7.89e+06 a.u. and 1e+07 a.u. and 8.26e+06 a.u. |
| NCI-H1437 | 210 h | 8.81e+07 a.u. and 5.63e+07 a.u. and 6.73e+07 a.u. and 3.51e+07 a.u. and 5.16e+07 a.u. and 9.11e+07 a.u. |
| A375 | 174.52 h | 1.28e+08 a.u. and 1.27e+08 a.u. and 1.36e+08 a.u. and 1.38e+08 a.u. and 1.18e+08 a.u. and 1.09e+08 a.u. |
| NCI-H1437 | 144 h | 2.96e+07 a.u. and 3.32e+07 a.u. and 3.38e+07 a.u. and 4.19e+07 a.u. and 3.28e+07 a.u. and 3.72e+07 a.u. |
| A375 | 396.52 h | 1.56e+08 a.u. and 1.87e+08 a.u. and 1.66e+08 a.u. and 1.76e+08 a.u. and 1.64e+08 a.u. |

Sample 3 — action: degrader
SMILES: O=C1CCC(N2Cc3cc(C4CCN(Cc5ccccc5)CC4)ccc3C2=O)C(=O)N1 (stereo not drawn)
GSPT1: Eukaryotic peptide chain release factor GTP-binding subunit ERF3A (GSPT1, Homo sapiens, UniProt P15170)
Chain of UniProt P15170 (whole entry, looked up): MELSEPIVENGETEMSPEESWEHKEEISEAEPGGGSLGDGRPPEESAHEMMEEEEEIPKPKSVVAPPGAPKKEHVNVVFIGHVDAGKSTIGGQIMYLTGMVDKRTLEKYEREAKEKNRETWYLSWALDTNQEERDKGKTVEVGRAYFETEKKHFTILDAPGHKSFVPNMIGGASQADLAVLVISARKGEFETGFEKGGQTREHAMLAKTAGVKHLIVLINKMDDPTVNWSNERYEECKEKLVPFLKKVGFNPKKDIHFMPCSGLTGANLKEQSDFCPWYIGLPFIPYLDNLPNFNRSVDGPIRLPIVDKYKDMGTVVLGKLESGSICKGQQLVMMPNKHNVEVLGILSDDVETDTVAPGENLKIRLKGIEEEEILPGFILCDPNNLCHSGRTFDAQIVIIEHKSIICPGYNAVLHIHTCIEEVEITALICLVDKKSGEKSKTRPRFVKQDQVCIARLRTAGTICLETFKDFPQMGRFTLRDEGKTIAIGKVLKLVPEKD
CRBN/Zinc finger protein Helios: CRBN/Zinc finger protein Helios (Homo sapiens, UniProt Q96SW2+Q9UKS7)
Chain of UniProt Q9UKS7 (whole entry, looked up): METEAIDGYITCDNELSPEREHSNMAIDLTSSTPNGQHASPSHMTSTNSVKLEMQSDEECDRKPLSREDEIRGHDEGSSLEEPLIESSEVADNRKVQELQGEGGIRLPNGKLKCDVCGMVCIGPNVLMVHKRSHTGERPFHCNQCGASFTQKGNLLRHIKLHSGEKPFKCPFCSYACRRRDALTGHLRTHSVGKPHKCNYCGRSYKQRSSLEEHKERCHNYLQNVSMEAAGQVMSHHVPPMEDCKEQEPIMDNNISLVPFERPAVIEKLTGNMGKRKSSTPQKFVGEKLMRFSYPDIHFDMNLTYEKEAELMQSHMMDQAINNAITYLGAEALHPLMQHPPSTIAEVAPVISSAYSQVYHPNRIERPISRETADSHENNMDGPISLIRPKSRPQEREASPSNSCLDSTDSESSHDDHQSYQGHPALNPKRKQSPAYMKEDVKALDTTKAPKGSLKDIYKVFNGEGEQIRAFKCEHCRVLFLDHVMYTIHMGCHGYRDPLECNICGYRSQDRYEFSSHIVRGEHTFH
Chain of UniProt Q96SW2 (whole entry, looked up): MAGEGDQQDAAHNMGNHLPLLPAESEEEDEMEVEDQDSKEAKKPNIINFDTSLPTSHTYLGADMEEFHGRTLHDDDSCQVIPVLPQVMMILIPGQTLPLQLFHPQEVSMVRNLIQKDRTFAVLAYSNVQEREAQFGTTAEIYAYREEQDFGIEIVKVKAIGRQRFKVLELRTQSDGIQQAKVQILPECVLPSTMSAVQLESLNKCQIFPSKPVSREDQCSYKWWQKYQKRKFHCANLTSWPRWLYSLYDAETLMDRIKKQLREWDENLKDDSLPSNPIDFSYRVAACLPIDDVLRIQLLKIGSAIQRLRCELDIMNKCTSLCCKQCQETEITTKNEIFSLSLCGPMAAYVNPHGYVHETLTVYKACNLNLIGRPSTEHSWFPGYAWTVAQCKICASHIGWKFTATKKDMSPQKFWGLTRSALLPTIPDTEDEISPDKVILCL
| target | test | system | conditions | remaining protein |
| --- | --- | --- | --- | --- |
| GSPT1 | HiBiT | HEK293 | 0.1235 µM | 109% and 100% |
| DNA-binding protein Ikaros (Homo sapiens, UniProt Q13422) | HiBiT | HEK293 | 1.111 µM, 6 h | 100% |
| Zinc finger protein Eos (IKZF4, Homo sapiens, UniProt Q9H2S9) | HiBiT | HEK293 | 0.01235 µM, 3 h | 124% |
| CRBN/Zinc finger protein Helios | flow cytometry | primary human regulatory T cells | 0.0004572 µM, 6 h | 110% |
| CRBN/Zinc finger protein Helios | flow cytometry | primary human regulatory T cells | 0.0001524 µM, 3 h | 107% |
| Zinc finger protein Aiolos (Homo sapiens, UniProt Q9UKT9) | HiBiT | HEK293 | 10 µM | 79.8% and 83.8% |
| GSPT1 | HiBiT | HEK293 | 0.01372 µM | 111% and 94.7% |

Sample 4 — Compound: NC(N)=NC(=O)c1nc(Cl)c(N2CCCCCC2)nc1N; read-out: β-arrestin recruitment; action: agonist; technique: PRESTO-Tango; concentration: 10 µM; relative to: untreated
| target | fold over basal |
| --- | --- |
| GPR39 (Homo sapiens, UniProt O43194) | 0.72 |
| MCHR1 (Homo sapiens, UniProt Q99705) | 1.13 |
| Probable G-protein coupled receptor 19 (GPR19, Homo sapiens, UniProt Q15760) | 1.36 |
| Probable G-protein coupled receptor 45 (GPR45, Homo sapiens, UniProt Q9Y5Y3) | 0.72 |
| G-protein coupled receptor 22 (GPR22, Homo sapiens, UniProt Q99680) | 0.61 |
| Metabotropic glycine receptor (GPR158, Homo sapiens, UniProt Q5T848) | 0.6 |
| HTR4 (Homo sapiens, UniProt Q13639) | 1.07 |
| PTGIR (Homo sapiens, UniProt P43119) | 0.82 |
| Mas-related G-protein coupled receptor member X3 (Homo sapiens, UniProt Q96LB0) | 0.6 |
| LPAR2 (Homo sapiens, UniProt Q9HBW0) | 0.82 |
| S1PR5 (Homo sapiens, UniProt Q9H228) | 1.06 |
| Probable G-protein coupled receptor 148 (GPR148, Homo sapiens, UniProt Q8TDV2) | 1.87 |

For quick reference, copied from above (sample 1):
| target | test | remaining binding |
| --- | --- | --- |
| EGFR (Homo sapiens, UniProt P00533, G719S) | cell-free assay | 72% |
| BMX (Homo sapiens, UniProt P51813) | cell-free assay | 93% |
| STK3 (Homo sapiens, UniProt Q13188) | cell-free assay | 100% |
| KIT (Homo sapiens, UniProt P10721, D816V) | cell-free assay | 94% |
| KIT (Homo sapiens, UniProt P10721, L576P) | cell-free assay | 100% |
| MAP2K2 (Homo sapiens, UniProt P36507) | cell-free assay | 73% |
| ERBB3 (Homo sapiens, UniProt P21860) | cell-free assay | 57% |
